Measured values pooled from the literature.
Each line is one published result; not all experiments were run side by side. ± gives the spread as reported.

SMILES | assay | system | setting | IC50 [µM]
CCCCCC(O)C=CC=O (stereo not drawn) | [3H]dopamine uptake, inhibitor | rat striatal synaptosomes | – | 450
CCN[C@@H]1C[C@H](N)[C@@H](O[C@H]2OC(CN)=CC[C@H]2N)[C@H](O)[C@H]1O[C@H]1OC[C@](C)(O)[C@H](NC)[C@H]1O | [14C]-phenylalanine incorporation, inhibitor, (UUU)12-directed cell-free translation | M. smegmatis 70S ribosomes, Leishmania/Trypanosoma hybrid decoding site | 60 min, 37 °C | > 500
N.N.[Cl][Pt][Cl] | angiogenesis, inhibitor | chick chorioallantoic membrane | 48 h, with: VEGF and bFGF | 18.2 ± 2.1
NCCc1c[nH]c2ccc(O)cc12 | vasoconstriction, pressure myography | mouse third-order mesenteric arteries | with: 5-HT | 0.1
C=C1[C@@H](O)C[C@H]2C(C)(C)CCC[C@]2(C)[C@H]1C[C@H](O)[C@H]1CC(=O)NC1=O | translation, inhibitor, item: firefly luciferase reporter | Krebs-2 cell lysate | – | ~5
N[C@@H](CO)C(=O)N[C@@H](Cc1c[nH]cn1)C(=O)N[C@@H](CCC(=O)O)C(=O)O | platelet aggregation, inhibitor | rat platelet-rich plasma | 5 min preincubation, 37 °C, with: ADP 0.1 mM | 214
CN.Cc1c(C)c2c(c(C)c1O)CCC(C)(C(=O)O)O2 (stereo not drawn) | DPPH radical scavenging | methanol | 10 min, with: DPPH 70 µM | 60
C/C(=C\Cc1c(O)c(Cl)c(C)c(C=O)c1O)CC/C=C(\C)[C@@H]1CC(=O)C(C)(C)O1 | succinate-dependent oxygen uptake, inhibitor | rat liver mitochondria | with: succinate 15 mM | 16
C=C(C)[C@@H]1CCC(C)=C[C@H]1c1c(O)cc(CCCCC)cc1O | nicotine C-oxidation to cotinine, inhibitor | pooled human liver microsomes | with: nicotine 500 µM | 0.98 ± 0.28
NC[C@@H]1O[C@H](O[C@H]2[C@@H](O)[C@H](O[C@@H]3[C@@H](O)[C@H](N)C[C@H](N)[C@H]3O[C@H]3O[C@H](CO)[C@@H](O)[C@H](O)[C@H]3N)O[C@@H]2CO)[C@H](N)[C@@H](O)[C@@H]1O | luciferase synthesis, inhibitor, coupled transcription-translation | M. smegmatis 70S ribosomes, human hybrid | 60 min, 37 °C | 4.7
C=C(C)[C@@H]1CCC(CO)=C[C@H]1c1c(O)cc(CCCCC)cc1O | nicotine demethylation to nornicotine, inhibitor | pooled human liver microsomes | with: nicotine 500 µM | 0.74 ± 0.24
NC[C@H]1O[C@H](O[C@H]2[C@H](O)[C@@H](O[C@H]3O[C@H](CO)[C@@H](O)[C@H](N)[C@H]3O)[C@H](N)C[C@@H]2N)[C@H](N)C[C@@H]1O | luciferase synthesis, inhibitor, coupled transcription-translation | M. smegmatis 70S ribosomes, human hybrid | 60 min, 37 °C | 21
N=C(N)NCCC[C@H](NC(=O)[C@@H]1CCCN1C(=O)CNC(=O)[C@@H](N)Cc1c[nH]c2ccccc12)C(=O)O | platelet aggregation, inhibitor | rat platelet-rich plasma | 5 min preincubation, 37 °C, with: ADP 0.1 mM | ~209
CNC(C)C1CCC(N)C(OC2C(N)CC(N)C(OC3OCC(C)(O)C(NC)C3O)C2O)O1 (stereo not drawn) | [14C]-phenylalanine incorporation, inhibitor, (UUU)12-directed cell-free translation | Mycolicibacterium smegmatis wild-type 70S ribosomes | 60 min, 37 °C | 0.7
CCCC[C@H]1C(=O)O[C@H](C)[C@H](NC(=O)c2cccc(NC=O)c2O)C(=O)O[C@@H](C)[C@@H]1OC(=O)CC(C)C | succinate-dependent oxygen uptake, inhibitor | rat liver mitochondria | with: succinate 15 mM | 0.0115
